Experimental data gathered from unrelated publications.
Every numbered part comes from another study and shows a few of its results, in no order. Positions count from the first letter of the parent shown.

Series 1 — method: protein binding microarray; form: double-stranded DNA, one strand shown; sample: in vitro; tested at: not given; relative to: not given; direction: higher = stronger binding
Target: Histone acetyltransferase KAT6A, winged helix 2, GST fusion (KAT6A, Homo sapiens, UniProt Q92794, residues 85-181)
Setting: 8-mer, flanks averaged, mean of 2 arrays, mostly near background
Construct (chain): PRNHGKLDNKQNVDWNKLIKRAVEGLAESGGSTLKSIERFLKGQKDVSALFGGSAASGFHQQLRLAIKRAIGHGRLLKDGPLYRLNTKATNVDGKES
Oligonucleotide	E-score
AGCAATAC	-0.0591
CAGCGCCG	0.137
CAAGCCGG	0.197
CTACCCCA	-0.0807
AGCGGCAA	0.17
AGGAGTAT	-0.201
ATCCCCCC	-0.283
TATACCGA	-0.0234
CGCAGAGC	0.225
GGCCACCC	0.182
GACGCTCA	-0.0562
ACGTGATC	-0.198
ACACACGG	0.00979
AACTATGG	-0.124
ACCTAAGT	-0.102
TAGAGGGA	0.0146
AAATGGGG	-0.143
AGCTTCAA	-0.0378
CCGGAGAG	0.0468
AAATCCCA	-0.0274
AGTAACAT	-0.145
ACTCTCAC	-0.0516

Series 2 — method: two-hybrid; relative to: out of 4 tests; direction: higher = firmer interaction
Partner: ARF10 575-693 (Arabidopsis thaliana, UniProt Q9SKN5)
B1: ARF5 788-902 (Arabidopsis thaliana, UniProt P93024); chain ATPRVRTYTKVQKTGSVGRSIDVTSFKDYEELKSAIECMFGLEGLLTHPQSSGWKLVYVDYESDVLLVGDDPWEEFVGCVRCIRILSPTEVQQMSEEGMKLLNSAGINDLKTSVS
B2: ARF1 538-665 (Arabidopsis thaliana, UniProt Q8L7G0); chain SRQIRSCTKVHMQGSAVGRAIDLTRSECYEDLFKKLEEMFDIKGELLESTKKWQVVYTDDEDDMMMVGDDPWNEFCGMVRKIFIYTPEEVKKLSPKNKLAVNARMQLKADAEENGNTEGRSSSMAGSR
B3: IAA18 (Arabidopsis thaliana, UniProt O24408); chain MEGYSRNGEISPKLLDLMIPQERRNWFHDEKNSVFKTEEKKLELKLGPPGEEDDDESMIRHMKKEPKDKSILSLAGKYFSPSSTKTTSHKRTAPGPVVGWPPVRSFRKNLASGSSSKLGNDSTTSNGVTLKNQKCDAAAKTTEPKRQGGMFVKINMYGVPIGRKVDLSAHNSYEQLSFTVDKLFRGLLAAQRDFPSSIEDEKPITGLLDGNGEYTLTYEDNEGDKMLVGDVPWQMFVSSVKRLRVIKTSEISSALTYGNGKQEKMRR
B4: IAA19 (Arabidopsis thaliana, UniProt O24409); chain MEKEGLGLEITELRLGLPGRDVAEKMMKKRAFTEMNMTSSGSNSDQCESGVVSSGGDAEKVNDSPAAKSQVVGWPPVCSYRKKNSCKEASTTKVGLGYVKVSMDGVPYLRKMDLGSSQGYDDLAFALDKLFGFRGIGVALKDGDNCEYVTIYEDKDGDWMLAGDVPWGMFLESCKRLRIMKRSDATGFGLQPRGVDE
B5: IAA28 (Arabidopsis thaliana, UniProt Q9XFM0); chain MEEEKRLELRLAPPCHQFTSNNNINGSKQKSSTKETSFLSNNRVEVAPVVGWPPVRSSRRNLTAQLKEEMKKKESDEEKELYVKINMEGVPIGRKVNLSAYNNYQQLSHAVDQLFSKKDSWDLNRQYTLVYEDTEGDKVLVGDVPWEMFVSTVKRLHVLKTSHAFSLSPRKHGKE
B6: IAA33 (Arabidopsis thaliana, UniProt Q9FKM7); chain MNSFEPQSQDSLQRRFHQDNSTTQQPRDTTTPFIPKPASKNHNNSNSSSGAAGRSFQGFGLNVEDDLVSSVVPPVTVVLEGRSICQRISLDKHGSYQSLASALRQMFVDGADSTDDLDLSNAIPGHLIAYEDMENDLLLAGDLTWKDFVRVAKRIRILPVKGNTRQVKRNE
B7: ARF8 699-811 (Arabidopsis thaliana, UniProt Q9FGV1); chain NSSNQTKNFVKVYKSGSVGRSLDISRFSSYHELREELGKMFAIEGLLEDPLRSGWQLVFVDKENDILLLGDDPWESFVNNVWYIKILSPEDVHQMGDHGEGSGGLFPQNPTHL
Construct (chain): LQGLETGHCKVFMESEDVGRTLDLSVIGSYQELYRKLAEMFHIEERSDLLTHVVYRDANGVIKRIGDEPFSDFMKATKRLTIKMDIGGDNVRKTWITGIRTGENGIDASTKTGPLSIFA
Molecule	positive tests
B1 (ARF5 788-902)	0
B2 (ARF1 538-665)	0
B3 (IAA18)	0
B4 (IAA19)	0
B5 (IAA28)	0
B6 (IAA33)	4
B7 (ARF8 699-811)	0

Series 3 — method: DHFR PCA, deep sequencing; sample: yeast; added: (+)-ABA 200 µM; relative to: wild-type fitted maximum; direction: higher = stronger binding
Target: ABI1, truncated, D143A, DHFR fusion (Arabidopsis thaliana)
Setting: methotrexate growth selection, single substitutions
Starting sequence: PYL1, truncated, DHFR fusion (Arabidopsis thaliana); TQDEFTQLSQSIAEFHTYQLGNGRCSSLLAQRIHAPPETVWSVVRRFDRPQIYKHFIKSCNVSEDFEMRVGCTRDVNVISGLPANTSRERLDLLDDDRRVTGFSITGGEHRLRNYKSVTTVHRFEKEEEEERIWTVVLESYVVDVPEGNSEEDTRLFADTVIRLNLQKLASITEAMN
Variant	relative binding score [%]
E125Y	101
Q167G	91.7
L82I	99.2
T6S	99.8
D95P	-10.3
A170R	99.4
L94E	3.75
E131G	117
N77A	104
Q31H	87.2
T73A	89.8
I33K	0.181
A158N	67.5
G102I	40.9
N22F	99.8
Q19K	106
P83T	16.5
Y115F	98.4
T106Q	94.1
V70L	91.6
V161Q	15.8
L91P	7.36
D153I	-4.94

Series 4 — method: RNA Bind-n-Seq; form: RNA; sample: in vitro; tested at: 100 nM; relative to: input RNA pool; direction: higher = stronger binding
Target: RING finger protein unkempt homolog, zinc fingers 1-6, SBP tag (UNK, Homo sapiens, UniProt Q9C0B0, residues 30-357)
Sequence of UniProt Q9C0B0 (30-357, looked up): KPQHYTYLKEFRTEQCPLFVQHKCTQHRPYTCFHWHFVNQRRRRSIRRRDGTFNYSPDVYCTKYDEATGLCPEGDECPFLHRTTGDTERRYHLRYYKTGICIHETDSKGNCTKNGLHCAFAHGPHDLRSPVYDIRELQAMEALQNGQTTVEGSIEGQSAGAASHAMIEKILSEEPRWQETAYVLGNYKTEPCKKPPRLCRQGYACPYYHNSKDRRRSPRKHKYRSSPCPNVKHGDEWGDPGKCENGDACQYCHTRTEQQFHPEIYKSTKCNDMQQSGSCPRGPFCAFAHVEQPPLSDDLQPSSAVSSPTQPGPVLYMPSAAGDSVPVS
Setting: RNA with constant flanks, vertebrate orthologous sites, ends assumed
Oligonucleotide	bound/input enrichment
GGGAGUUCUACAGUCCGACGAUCCAAUUCCAUGGUGGAGGGUUCGGAACUCAAAAAGGUUCGCUCCAACUCUAGAAUUUACCACAGGUAUUUUUUACUGGACGCUGACAUGCAGAGCCUGAGGUGGGAGCCAUCCAAGAAGGACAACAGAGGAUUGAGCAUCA	0.221 ratio
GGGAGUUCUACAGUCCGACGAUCGACCUCCUGAACUUCUGGCUUUCAAGCUGUGGCUGUUUGACAUACUGGUUUUAUUUUCUCUACAAUUUUCCCACCUUUCUUCCCCUGUUCCUAAGGUUUGACUCAUGGAUCUUACUCUUCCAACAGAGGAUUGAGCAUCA	1.02 ratio
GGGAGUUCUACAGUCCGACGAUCUUACAGUCAUUGAUGGACUCUAUUUUUUUAUUAUUACUUGGACCUCGGUCGUUUUUAUACUAGCAACGAAAAAUGUCUUGUUUUAAUUUGCUUUUUUUGGGGGGUACGGGGUGGGAAGCACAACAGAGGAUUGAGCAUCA	0.842 ratio
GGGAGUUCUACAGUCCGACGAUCUUCAUUACCUGACCAGAGUGGAGGUCACAGAGUUUGAGGACAUCAAAUCAGGUUACAGAAUAGAUUUUUGUGGUUUUCAUCAGGCCUAGUGUAAUACUAACGCAAUAAAACCAUUUAAAACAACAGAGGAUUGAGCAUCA	0.349 ratio
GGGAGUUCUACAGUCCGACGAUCGCACUAAAGGAGGUAGCAUCUUUAUUUUUGUAUCAAAGAUAAAGCUUAUUUUGAGAUUAUUAGGAUUUUUACACAACUCUGAAAUCUGUUGCUUUUGUAAACAGGUUGUUUGAUCUUAGGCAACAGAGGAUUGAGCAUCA	0.794 ratio
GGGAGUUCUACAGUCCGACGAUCUAUUUUCUUAUCUUAGGUAUCAUUGCCCAAUGCCCAAGAUCUUUUAUGUUCAGCUGACUGUAGGAAAUAAUGAAUUUUUUGGGGAAGGAAAGACUCGACAAGCUGCUAGACACAAUGCUGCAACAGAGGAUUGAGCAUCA	1.43 ratio
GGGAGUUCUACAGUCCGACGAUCUAAUACUUAAGCCAACAACAGUUCUAAAAUGUUAUUUAUUUGUGUCUGUAAGUUUGUACAUAGUAUUACCAACCUCAUAUUGUUGAUUUUUUUUUUAUCAGUUUUGAGUUUUGUUUUGUUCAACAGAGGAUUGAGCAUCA	0.44 ratio
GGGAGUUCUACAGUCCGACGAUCCCCUGUUAUCCUAAAAAUUGACUUUUUUUAACAGUUGUGUUGCCACCACUUGCUAAAAAAAAUUAGCAAUAUUAGAAUAAGAGUAAAAAUUAGAGUAAGAAAUCUUGCUCAUGGUUUUGCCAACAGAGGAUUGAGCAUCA	0.185 ratio
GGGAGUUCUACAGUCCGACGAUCCCCACUACUCCUGGGUGCGUGACUGCCAGGGAAGCAUCCACCAGUGCUGCAAGGGGUGCAGAGUGUUUUUUUUGCUGCCUCAGUCCCCAAUGCCUUCAAGCAGAAGUGGCAGUAGAUUGUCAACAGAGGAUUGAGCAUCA	0.23 ratio
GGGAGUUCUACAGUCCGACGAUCUUCAGGCACAACUGACUGGUGCCCAGCAUUCCUUACCUAGUUACCUGUCCAAUGCAGGUGUAGGUAAUUUUCAGGAAACAACCAGGCAGUCAUCCUUAUCCUGUAGUCCAGUAGGAAAUUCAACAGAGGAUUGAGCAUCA	0.279 ratio
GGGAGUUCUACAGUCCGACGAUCUGGUUUUUAAAAAUUUAUUGAGCGUAGCUUUGUGCUAAAGCUUAUGUAGACUUAAAAAAAUUCAUGGAUUGGUUCUUUGUUGUGUUGUUCUCAUUGAAAAUAAAAAGAACUUUGAAUCUCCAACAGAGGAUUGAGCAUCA	0.222 ratio

Series 5 — target: CCND1, cyclin fold, Cln2 fusion (human); method: yeast growth competition, sequencing; sample: yeast; setting: weak parent motif; relative to: not given; direction: higher = stronger binding
Starting sequence: WEE1 docking peptide (human); CTLRQKLIFSPCS
Variant	normalised enrichment score
CTARQKLIFSPCS [L3A]	0.491
CTLRQKLIFAPCS [S10A]	0.0816
CTLRQALIFSPCS [K6A]	0.213
CTLRQKLIFSPAS [C12A]	0.0241
CTLRQKLIFSACS [P11A]	0.13
CTLRQKLAFSPCS [I8A]	0.384

Repeated from above (series 4):
Oligonucleotide	bound/input enrichment
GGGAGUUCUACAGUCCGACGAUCUAAUACUUAAGCCAACAACAGUUCUAAAAUGUUAUUUAUUUGUGUCUGUAAGUUUGUACAUAGUAUUACCAACCUCAUAUUGUUGAUUUUUUUUUUAUCAGUUUUGAGUUUUGUUUUGUUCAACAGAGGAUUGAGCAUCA	0.44 ratio
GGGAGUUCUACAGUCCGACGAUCCCCUGUUAUCCUAAAAAUUGACUUUUUUUAACAGUUGUGUUGCCACCACUUGCUAAAAAAAAUUAGCAAUAUUAGAAUAAGAGUAAAAAUUAGAGUAAGAAAUCUUGCUCAUGGUUUUGCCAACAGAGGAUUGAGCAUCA	0.185 ratio
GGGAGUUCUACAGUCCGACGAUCCCCACUACUCCUGGGUGCGUGACUGCCAGGGAAGCAUCCACCAGUGCUGCAAGGGGUGCAGAGUGUUUUUUUUGCUGCCUCAGUCCCCAAUGCCUUCAAGCAGAAGUGGCAGUAGAUUGUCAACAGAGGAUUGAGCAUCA	0.23 ratio
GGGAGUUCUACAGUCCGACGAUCUUCAGGCACAACUGACUGGUGCCCAGCAUUCCUUACCUAGUUACCUGUCCAAUGCAGGUGUAGGUAAUUUUCAGGAAACAACCAGGCAGUCAUCCUUAUCCUGUAGUCCAGUAGGAAAUUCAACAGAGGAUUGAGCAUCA	0.279 ratio
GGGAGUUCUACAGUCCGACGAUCUGGUUUUUAAAAAUUUAUUGAGCGUAGCUUUGUGCUAAAGCUUAUGUAGACUUAAAAAAAUUCAUGGAUUGGUUCUUUGUUGUGUUGUUCUCAUUGAAAAUAAAAAGAACUUUGAAUCUCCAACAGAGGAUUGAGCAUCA	0.222 ratio
